Experimental data from different studies.
Numbered parts are unrelated; each lists some results of a single study. Substitutions count along the parent as printed.

Sample 1
Target: Max-binding protein MNT, bHLH-zipper, MAX partner unstated (MNT, Homo sapiens, UniProt Q99583, residues 220-300)
Technique: protein-binding microarray
Form: double-stranded DNA, one strand shown
Medium: in vitro
Tested at: not given
Notes: k-mer, scored over probes, only values ≥0.25
Reading: higher = stronger binding
Endpoint: E-score
Construct (chain): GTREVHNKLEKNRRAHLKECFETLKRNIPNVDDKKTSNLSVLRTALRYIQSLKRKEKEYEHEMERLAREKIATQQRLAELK
Sequence = ACGCGGCC; result = 0.254
Sequence = ATCACATG; result = 0.46
Sequence = CACGTCAC; result = 0.267
Sequence = ACATGGCC; result = 0.33
Sequence = AGGTGGGG; result = 0.256
Sequence = CATGCAGC; result = 0.335
Sequence = CCCCTCCC; result = 0.35
Sequence = ACATGCAC; result = 0.39

Sample 2
Target: Cyclin-dependent kinase 6, with cyclin D3 (CDK6, Homo sapiens, UniProt Q00534)
Sequence of UniProt Q00534 (whole entry, looked up): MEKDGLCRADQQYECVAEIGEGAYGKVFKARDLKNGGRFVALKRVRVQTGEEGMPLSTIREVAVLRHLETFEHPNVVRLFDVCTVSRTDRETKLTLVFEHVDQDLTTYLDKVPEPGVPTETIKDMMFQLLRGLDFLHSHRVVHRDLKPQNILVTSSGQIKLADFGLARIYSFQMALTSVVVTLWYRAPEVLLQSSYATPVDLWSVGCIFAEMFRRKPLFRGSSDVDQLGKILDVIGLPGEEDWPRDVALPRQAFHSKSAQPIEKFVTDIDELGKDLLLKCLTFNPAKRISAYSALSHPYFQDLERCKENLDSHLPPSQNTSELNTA
Effect on: enzyme activity
Mode: inhibitor
Tested at: 0.5 µM
Baseline: control
Endpoint: remaining activity
Structure (SMILES) = N#CC(C#N)=C(N)/C(C#N)=C/c1ccc(O)cc1; result = 100%
Structure (SMILES) = C#Cc1cccc(Nc2ncnc3cc(OCCOC)c(OCCOC)cc23)c1; result = 117%
Structure (SMILES) = COc1cc2ncnc(Nc3ccc(F)c(Cl)c3)c2cc1OCCCN1CCOCC1; result = 118%
Structure (SMILES) = COc1cc2nccc(Oc3ccc(NC(=S)NC(=O)c4ccccc4C)cc3)c2cc1OC; result = 97.3%
Structure (SMILES) = CN(C)c1ccc(C=C2C(=O)Nc3ccccc32)cc1; result = 96.4%
Structure (SMILES) = O=C1NC(=O)C(c2cn(CCCn3ccnc3)c3ccccc23)=C1Nc1ccccc1; result = 104%
Structure (SMILES) = CO[C@H]1C[C@@H]2CC[C@@H](C)[C@@](O)(O2)C(=O)C(=O)N2CCCC[C@H]2C(=O)O[C@H]([C@H](C)C[C@@H]2CC[C@@H](O)[C@H](OC)C2)CC(=O)[C@H](C)/C=C(\C)[C@@H](O)[C@@H](OC)C(=O)[C@H](C)C[C@H](C)/C=C/C=C/C=C/1C; result = 105%
Structure (SMILES) = COc1ccc(CNC(=O)Nc2ncc([N+](=O)[O-])s2)cc1; result = 99.1%
Structure (SMILES) = CNC(=O)c1cc(Oc2ccc(NC(=O)Nc3ccc(Cl)c(C(F)(F)F)c3)cc2)ccn1; result = 104%
Structure (SMILES) = Nc1ncnc2n[nH]c(Nc3ccc(F)cc3)c12; result = 99.6%
Structure (SMILES) = CCOC(=O)c1c(C)[nH]c(/C=C2\C(=O)Nc3ccccc32)c1C; result = 84.7%
Structure (SMILES) = Cn1sc(=O)n(Cc2ccccc2)c1=O; result = 100%
Structure (SMILES) = O=c1c2ccccc2[nH]c(=S)n1CCN1CCC(=C(c2ccc(F)cc2)c2ccc(F)cc2)CC1; result = 98.2%

Sample 3
Target: 5-hydroxytryptamine receptor 5A (HTR5A, Homo sapiens, UniProt P47898)
Sequence of UniProt P47898 (whole entry, looked up): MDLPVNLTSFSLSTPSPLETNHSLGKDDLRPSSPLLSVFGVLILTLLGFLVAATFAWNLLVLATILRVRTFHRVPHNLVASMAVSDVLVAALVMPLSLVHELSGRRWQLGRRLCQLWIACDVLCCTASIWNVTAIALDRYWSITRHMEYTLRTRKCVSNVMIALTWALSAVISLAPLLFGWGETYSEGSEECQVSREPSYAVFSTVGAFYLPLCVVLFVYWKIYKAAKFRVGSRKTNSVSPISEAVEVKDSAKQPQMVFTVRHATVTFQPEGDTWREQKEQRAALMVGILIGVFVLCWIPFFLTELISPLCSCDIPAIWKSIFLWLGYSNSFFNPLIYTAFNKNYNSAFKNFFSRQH
Effect on: cell-free assay
Tested at: 10 µM
Endpoint: inhibition
SMILES = NS(=O)(=O)c1cc(NC(=O)C2(c3ccccc3Cl)CC2)ccc1Oc1cccc(Cl)c1; result = 5.57%
SMILES = CN(C)c1ncnc(-c2ccc3nc(Nc4cc(CN5CCN(C(=O)CC(F)(F)F)CC5)ccn4)[nH]c3c2)c1Cl; result = 23.6%
SMILES = Cc1cc(C)c(-n2ccn3nc(-c4cccnc4)cc23)cc1NC(=O)c1cc(C#N)cc(S(F)(F)(F)(F)F)c1; result = 9.57%
SMILES = O=C(Nc1ccc(Oc2ccc(F)cc2)cc1)N1CCc2ncccc2[C@H]1c1ccc(F)cc1; result = 7.18%
SMILES = CC1=C(C#N)C(c2ccc3[nH]nc(C)c3c2)C(C#N)=C(C)N1; result = -11.2%
SMILES = O=C(N[C@H]1CCCCC/C=C\C2C[C@@]2(C(=O)O)NC(=O)[C@@H]2C[C@@H](Oc3ccncc3)CN2C1=O)OC1CCCC1 (stereo partly drawn); result = 1.81%
SMILES = COc1ccc2c(c1)O[C@@H](c1ccc(OC)c(OC)c1)C[C@H]2NC(=O)C1(c2ccc3c(c2)OC(F)(F)O3)CC1; result = -17.4%
SMILES = CN(C)CC#Cc1ccc(OCCCc2sc(N3CCc4cccc(C(=O)Nc5nc6ccccc6s5)c4C3)nc2C(=O)O)c(F)c1; result = -3.1%
SMILES = Cc1ncc(-c2cc(Cl)ccc2F)cc1-n1c(=O)n(CC(N)=O)c2ccccc21; result = -0.66%
SMILES = O=C(NCCCC1CCCCC1)c1ccc(CNC(=O)c2cnn(-c3ccccc3)c2C(F)(F)F)cc1; result = 17%
SMILES = CN(C)C(=O)Cn1cc(-c2nc(C3(c4ccc(-c5cnc(N)nc5)cc4)CC3)no2)cn1; result = 0.23%
SMILES = COCCc1ccc(-c2c(C)nc3c(N4CCOCC4)ccnn23)cn1; result = 3.93%
SMILES = O=C(Nc1ccc(-n2nc(-c3cccnc3)cc2C(F)(F)F)cn1)c1ccc(-c2ccccc2)c(F)c1; result = -2.92%
SMILES = Cn1cc(Cl)c2c(Oc3c(F)cc(Nc4cc(Cl)nc(N)n4)cc3F)ccnc21; result = 0.35%
SMILES = O=C([C@H]1C[C@H](O)CN1c1ccc(Cl)cc1)N1CC2COCC(C1)N2Cc1ccc(Cl)cc1; result = -1.82%
SMILES = CC1CCN(c2ccnc(NCc3cn(C)cn3)n2)CC1; result = 24%

Sample 4
Target: CRIPT, C-terminal peptide
Technique: DHFR complementation, deep sequencing
Medium: yeast
Notes: single substitutions, model-inferred values
Baseline: wild type
Reading: higher = weaker binding
Endpoint: binding free energy change
Starting sequence: ERBIN, PDZ domain 1 (human); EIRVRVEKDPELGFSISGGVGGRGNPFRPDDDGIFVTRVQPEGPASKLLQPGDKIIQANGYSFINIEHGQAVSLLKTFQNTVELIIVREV; partner TKNYKQTSV
Variant = E89T; result = 0.0763 kJ/mol
Variant = L49Y; result = 0.136 kJ/mol
Variant = F35G; result = 1.92 kJ/mol
Variant = L49Q; result = 3.09 kJ/mol
Variant = H68G; result = 6.03 kJ/mol
Variant = V6D; result = 2.2 kJ/mol
Variant = I86R; result = 6.28 kJ/mol
Variant = V82G; result = 2.97 kJ/mol

Excerpt of the above (sample 1):
Sequence = ATCACATG; result = 0.46
Sequence = CCCCTCCC; result = 0.35
Sequence = CATGCAGC; result = 0.335
